Published values pooled from the literature.
Protocols differ between the studies behind these lines. Values joined by “and” are separate records of one study, mostly repeats; a detail may differ. Numbers after ± are the reported error.

SMILES	assay	test system	conditions	how to read	endpoint	value
C[C@H](Oc1ccc(Br)cc1-c1ccon1)C(=O)O	response latency	human, tibialis anterior muscle	100 mg, 30 Hz+30 s	–	difference from placebo	1.17%
C[C@@H](O)CCOC(=O)C[C@@H](C)O	measured: C10:2 acylcarnitine	human, plasma	60 min, log2-transformed values	–	metabolite level	-5.27 ± 0.65 µmol/L
CC(C)NCC(O)c1ccc(O)c(O)c1 (stereo not drawn)	–	ventricular cardiomyocytes, C57BL/6 mouse	dose not given, 0.572 s	–	sarcomere length	1.56 µm
COc1nc(NCc2cn(-c3ccc(NC(=O)c4ccc([N+](=O)[O-])cc4)cc3)nn2)nc(OC)n1	cell viability, MTT	normal colonocytes, rat	72 h	–	IC50	9.79 ± 0.85 nM
O=C(O)CNC(=O)Cc1ccccc1	–	ventricular cardiomyocytes, C57BL/6 mouse	dose not given, 0.692 s	–	sarcomere length	1.72 µm
CC[C@H](C)[C@H](NC(=O)[C@H](CCC(=O)O)NC(=O)[C@H](C)NC(=O)[C@@H](NC(=O)[C@H](Cc1c[nH]cn1)NC(=O)[C@H]1CCC[C@@H]1NC(=O)[C@H](CCC(=O)O)NC(=O)[C@H](C)NC(=O)[C@H]1CCC[C@@H]1NC(=O)[C@H](CC(C)C)NC(=O)[C@H](Cc1c[nH]cn1)NC(=O)[C@H](Cc1c[nH]cn1)NC(=O)[C@H]1CCC[C@@H]1NC(=O)[C@H](Cc1ccccc1)NC(=O)[C@H](Cc1ccccc1)NC(=O)[C@H](CCCNC(=N)N)NC(=O)[C@H](CCCNC(=N)N)NC(=O)[C@H](CCCNC(=N)N)NC(=O)[C@H]1CCC[C@@H]1NC(=O)[C@H](CC(=O)O)NC(=O)[C@H](CCC(N)=O)NC(=O)[C@@H](NC(=O)C[C@H](Cc1c[nH]c2ccccc12)NC(=O)[C@H](CCCCN)NC(=O)[C@@H](Cc1c[nH]c2ccccc12)NC(=O)[C@H](CC(C)C)NC(=O)[C@H](CC(=O)O)NC(=O)[C@H](Cc1c[nH]cn1)NC(=O)[C@H](CC(C)C)NC(=O)C[C@@H](N)CC(C)C)[C@@H](C)CC)[C@@H](C)O)C(N)=O	–	WT-hPTH1R mouse	subcutaneous, 500 nmol/kg	–	time to recovery of blood ionized calcium	6 h
N[C@@H](CC(=O)N1CCn2c(nnc2C(F)(F)F)C1)Cc1cc(F)c(F)cc1F	oral glucose tolerance test	ob/ob mouse	oral, 10 mg/kg, -30 min, added: glucose 2 g/kg	–	glucose lowering	17%
Cc1nn(-c2nc3c(F)cc(F)cc3s2)c(O)c1C(c1ccc(C(F)(F)F)cc1)c1c(C)nn(-c2nc3c(F)cc(F)cc3s2)c1O	–	mouse, cerulein-induced acute pancreatitis, serum	25 mg/kg	–	amylase activity	74.8 mOD/min and 47.1 mOD/min and 159 mOD/min and 126 mOD/min and 183 mOD/min
COc1nc(NCc2cn(-c3ccc(C(=O)Nc4ccc(F)cc4)cc3)nn2)nc(OC)n1	cell viability, MTT	normal colonocytes, rat	72 h	–	IC50	111 ± 1.78 nM
CC#CC(=O)N[C@H]1CCCN(c2c(F)cc(C(N)=O)c3[nH]c(C)c(C)c23)C1	measured: IgG	human	3 mg once daily, day 21	reference: baseline	serum immunoglobulin	-3.8 % change
Cc1cccc(N(O)N=Nc2ccc(S(=O)(=O)Nc3cc(C)on3)cc2)c1	carrageenan-induced paw edema	Wistar rat	oral, 100 mg/kg, 0 h (baseline), added: carrageenan 1% subplantar	higher = more edema	paw edema volume	3.4 ± 0.45 a.u.
COc1cc(Nc2ncc3c(n2)-c2ccc(Cl)cc2C(c2c(F)cccc2OC)=NC3)ccc1C(=O)O	–	mouse, OS-1 osteosarcoma xenograft	oral, 2.6 mg/kg, day 21	reference: vehicle	relative tumour volume T/C	2.09
Cc1cc(C)c(CNC(=O)c2cc(Cl)c3c(c2C)O[C@@](C)([C@H]2CC[C@H](N(C)C)CC2)O3)c(=O)[nH]1	IWG criteria	relapsed/refractory PTCL-NOS patients	dose not given	–	stable disease as best response	12%
COc1c(C)cnc(Cn2cc(C#CCCOP(=O)(O)O)c3c(Cl)nc(N)nc32)c1C	measured: HER-2 extracellular domain	human patients, serum	≥48 mg/m^2	–	serum HER-2 ECD level	decreased
CN[C@@H]1COc2c(S(=O)(=O)NC(=O)Nc3c4c(cc5c3CCC5)CCC4)cnn2C1	measured: IL-1β	human participants, whole blood ex vivo	900 mg twice daily, multiple doses, 24 h, added: LPS/ATP	reference: baseline	inhibition	99.4%
Cc1cc(F)cc2c(CCC(=O)N[C@@H]3C(=O)NC[C@H]3O)c(-c3ccc(F)cc3)[nH]c12	–	mice, APOL1 G2, single copy	oral, 30 mg/kg twice daily, day 14, dosing from day 6, added: IFNγ plasmid injection	–	UACR	361 µg/mg
N#Cc1ccc2c(-c3ccncc3)c(-c3ccc(F)cc3)nn2c1	kinase binding, competitor, MIB/MS competition, measured: HRR25	Candida albicans cell lysate	1 µM	reference: DMSO	log2 fold change	-1.2
COc1cc2cc(-c3ccc(CC(=O)Nc4cc(C(C)(C)C(F)(F)F)no4)cn3)cnc2cc1OC	RECIST v1.1	RET-altered advanced solid tumour patients	oral, 20 mg once daily, phase I	–	stable disease as best response	0%
Cc1cccc(N(O)N=Nc2ccc(S(=O)(=O)Nc3onc(C)c3C)cc2)c1	carrageenan-induced paw edema	Wistar rat	oral, 100 mg/kg, 4 h after carrageenan, added: carrageenan 1% subplantar	higher = more edema	paw edema volume	4.42 ± 0.83 a.u.
COc1ccccc1[C@H](Cn1c(=O)n(C(C)(C)C(=O)O)c(=O)c2c(C)c(-c3ncco3)sc21)OC1CCOCC1	–	human	20 mg, post-treatment	–	serum adiponectin	5.69 ± 3.13 µg/mL

SMILES	assay	test system	conditions	how to read	endpoint	value
Cc1noc(NS(=O)(=O)c2ccc(N=NN(O)c3ccccc3)cc2)c1C	carrageenan-induced paw edema	Wistar rat	oral, 100 mg/kg, 3 h after carrageenan, added: carrageenan 1% subplantar	higher = more edema	paw edema volume	5.32 ± 0.82 a.u.
Cc1oncc1C(=O)Nc1ccc(C(F)(F)F)cc1	measured: dihydroorotate	female CD-1 mice, pooled urine	oral, 30 mg/kg daily, 0-8 h after dose 3	–	DHO concentration	3090 ± 134 µM
OC(CCN1CCCCC1)(c1ccccc1)C1CC2C=CC1C2 (stereo not drawn)	resting-state EEG	healthy elderly humans	oral, 4 mg, eyes open, LS mean	reference: baseline	change, theta power, EEG O1-Pz	4.5%
C[C@H]1C[C@H]2CSC(N)=N[C@@]2(c2nc(NC(=O)c3ccc(OC(F)F)cn3)cs2)CO1	measured: Aβx-40	healthy adults, plasma	3 mg single dose, 24 h post-dose	reference: placebo	percent change from baseline	-25.1%
[Cl-].[Cl-].[Pt+2].[Ru+2].c1ccc(-c2nccnc2-c2ccccn2)nc1.c1cnc2c(c1)ccc1cccnc12.c1cnc2c(c1)ccc1cccnc12	photoinduced DNA cleavage	supercoiled pcDNA	250 µM, 0.1 µM pcDNA	–	nicked circular DNA	23.9%
COc1cc(-c2ccccc2)ncc1C(=O)Nc1ccc2c(=O)[nH]c(-c3ccc(C(C)(C)O)cc3)nc2c1	RNA-seq GSEA, measured: HALLMARK_MYC_TARGETS_V2	organoids, small intestinal, Apc Q1405X, mouse	dose not given, knockout organoids	reference: DMSO, direction not given	normalized enrichment score	-1.25
Cc1n[nH]c2ccc(-c3cc(OC[C@@H](N)Cc4ccccc4)cnc3-c3ccoc3)cc12	kinase binding, competitor, MIB/MS competition, measured: ATG1	Candida albicans cell lysate	10 µM	reference: DMSO	log2 fold change	-0.524
CCN(O)N=Nc1ccc(S(=O)(=O)Nc2nccs2)cc1	carrageenan-induced paw edema	Wistar rat	oral, 100 mg/kg, 3 h after carrageenan, added: carrageenan 1% subplantar	higher = more edema	paw edema volume	5.81 ± 0.68 a.u.
c1ccc(-c2n[nH]cc2-c2ccnc3ccccc23)nc1	kinase binding, competitor, MIB/MS competition, measured: HSL1	Candida albicans cell lysate	100 nM	reference: DMSO	log2 fold change	1.16
CCCN(O)N=Nc1ccc(S(=O)(=O)Nc2onc(C)c2C)cc1	carrageenan-induced paw edema	Wistar rat	oral, 100 mg/kg, 4 h after carrageenan, added: carrageenan 1% subplantar	higher = more edema	paw edema volume	4.32 ± 0.71 a.u.
N#Cc1ccc2c(c1)[C@H]1CCCN(C(=O)c3ccc4[nH]cnc4c3)[C@H]1C2	–	human clinical trial, male	oral, 240 mg once daily	–	androstenedione change from baseline	1.75 nmol/L
C=CCn1c(=O)c2cnc(Nc3ccc(N4CCN(C)CC4)cc3)nc2n1-c1ccc2c(n1)[C@@](O)(CC)CC2	–	SK-UT-1 xenograft, BALB/c nude mice	oral, 80 mg/kg, day 24, 6 d on, 1 d off x 4 cycles	–	tumour growth inhibition	98.2%
CCN(O)N=Nc1ccc(S(=O)(=O)Nc2onc(C)c2C)cc1	carrageenan-induced paw edema	Wistar rat	oral, 100 mg/kg, 0 h (baseline), added: carrageenan 1% subplantar	higher = more edema	paw edema volume	3.39 ± 0.45 a.u.
CC(C)C[C@H](NC(=O)[C@@H](Cc1c[nH]c2ccccc12)NC(=O)[C@H](Cc1ccc(O)cc1)NC(=O)[C@H](CO)NC(=O)[C@H](Cc1c[nH]c2ccccc12)NC(=O)[C@H](Cc1c[nH]cn1)NC(=O)[C@@H]1CCC(=O)N1)C(=O)N[C@@H](CCCNC(=N)N)C(=O)N1CCC[C@H]1C(=O)NCC(N)=O	–	Chinese boys, central precocious puberty	intramuscular, 22.5 mg day 1, month 6, month 6, unchanged Tanner stage IV	reference: screening	boys at genital stage	0%
CO[C@H]1CC[C@H](N2C(=O)CNc3ncc(-c4ccc(C(C)(C)O)nc4)nc32)CC1	flow cytometry	stimulated B cells, human, blood	60 mg single dose, 1.5 h, median	reference: baseline	pS6RP change from baseline	-67.2%
Cc1c(NC(=O)c2cccnc2)c(=O)n(-c2ccccc2)n1C	histology	Dmd C3333Y mice, tibialis anterior	dose not given	–	centrally nucleated fibres	62% and 64% and 67% and 56%
C=Cc1c(C)c2cc3nc(c(CC(=O)O)c4[nH]c(cc5nc(cc1[nH]2)C(C)=C5CC)c(C)c4C(=O)O)[C@@H](CCC(=O)O)[C@@H]3C	flow cytometry	mice, 4T1 tumour-bearing	dose not given, 1 h	–	CD4 T cells	1.97%
CC(C)[C@H](C(=O)Nc1ccc(C(=O)NO)cc1)c1ccccc1	volumetric MRI	human, left schwannoma	dose not given, day 64	reference: baseline	tumour volume change	-8.69%
COc1ccc(-c2cncc(N[C@@H](C)c3cccc(NC(=O)c4cncc(C)c4)c3)n2)cc1OC	measured: rno-miR-142-5p	rat SU5416/hypoxia model, lung	dose not given, unit not given	reference: SU5416/hypoxia vehicle	delta delta Ct	0.425

Some of these lines once more:
SMILES	assay	test system	conditions	how to read	endpoint	value
CCCN(O)N=Nc1ccc(S(=O)(=O)Nc2onc(C)c2C)cc1	carrageenan-induced paw edema	Wistar rat	oral, 100 mg/kg, 4 h after carrageenan, added: carrageenan 1% subplantar	higher = more edema	paw edema volume	4.32 ± 0.71 a.u.
N#Cc1ccc2c(c1)[C@H]1CCCN(C(=O)c3ccc4[nH]cnc4c3)[C@H]1C2	–	human clinical trial, male	oral, 240 mg once daily	–	androstenedione change from baseline	1.75 nmol/L
C=CCn1c(=O)c2cnc(Nc3ccc(N4CCN(C)CC4)cc3)nc2n1-c1ccc2c(n1)[C@@](O)(CC)CC2	–	SK-UT-1 xenograft, BALB/c nude mice	oral, 80 mg/kg, day 24, 6 d on, 1 d off x 4 cycles	–	tumour growth inhibition	98.2%
